{"data": "Published values pooled from the literature", "note": "Each numbered part is a random draw from the data of one study; scales do not carry over between parts."}
{"data": "Set 1", "target": "Sal-like protein 4, full length isoform A (SALL4, Homo sapiens, UniProt Q9UJQ4, residues 1-1053)", "technique": "universal PBM", "form": "double-stranded DNA, one strand shown", "sample": "in vitro", "concentration": "600 nM", "setting": "8-mer, flanks averaged, mean of replicates", "direction": "higher = stronger binding", "sequence of UniProt Q9UJQ4 (whole entry, looked up)": "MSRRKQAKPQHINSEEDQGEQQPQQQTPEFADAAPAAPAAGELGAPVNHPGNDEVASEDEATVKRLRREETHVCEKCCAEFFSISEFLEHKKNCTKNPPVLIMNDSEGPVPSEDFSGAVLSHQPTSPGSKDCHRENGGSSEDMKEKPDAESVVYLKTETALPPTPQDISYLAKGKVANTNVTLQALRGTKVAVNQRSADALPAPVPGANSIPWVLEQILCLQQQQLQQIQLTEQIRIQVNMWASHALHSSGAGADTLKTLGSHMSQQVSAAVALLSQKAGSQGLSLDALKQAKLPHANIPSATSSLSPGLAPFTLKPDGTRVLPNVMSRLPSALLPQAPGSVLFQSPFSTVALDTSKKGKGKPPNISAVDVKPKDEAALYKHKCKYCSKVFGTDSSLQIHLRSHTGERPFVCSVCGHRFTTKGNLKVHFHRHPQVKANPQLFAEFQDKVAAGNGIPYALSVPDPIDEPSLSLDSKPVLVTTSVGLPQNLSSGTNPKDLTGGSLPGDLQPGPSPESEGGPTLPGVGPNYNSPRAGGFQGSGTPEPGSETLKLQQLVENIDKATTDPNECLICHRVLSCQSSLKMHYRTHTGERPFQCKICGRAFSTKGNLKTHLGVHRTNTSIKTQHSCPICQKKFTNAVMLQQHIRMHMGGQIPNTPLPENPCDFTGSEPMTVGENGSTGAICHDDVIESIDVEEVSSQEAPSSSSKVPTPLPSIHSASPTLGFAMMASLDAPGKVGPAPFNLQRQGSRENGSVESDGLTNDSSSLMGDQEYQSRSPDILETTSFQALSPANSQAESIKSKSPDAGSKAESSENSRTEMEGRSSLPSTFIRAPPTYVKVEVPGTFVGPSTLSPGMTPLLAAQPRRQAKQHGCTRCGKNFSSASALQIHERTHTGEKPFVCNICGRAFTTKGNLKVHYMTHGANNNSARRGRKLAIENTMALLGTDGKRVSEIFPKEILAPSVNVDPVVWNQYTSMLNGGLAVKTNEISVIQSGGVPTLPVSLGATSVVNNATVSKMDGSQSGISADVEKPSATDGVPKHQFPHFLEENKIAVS"}
{"Strand": "CGAAGATA", "E-score": 0.148}
{"Strand": "AAATTGCA", "E-score": 0.193}
{"Strand": "ACCGATTA", "E-score": 0.0649}
{"Strand": "ATTGCTTG", "E-score": 0.197}
{"Strand": "GCGCCTCC", "E-score": -0.23}
{"Strand": "CAAATACC", "E-score": 0.0827}
{"Strand": "AGTACCTC", "E-score": -0.149}
{"Strand": "GGACCAGA", "E-score": -0.259}
{"data": "Set 2", "target": "RNA binding protein fox-1 homolog 2, RRM domain, GST-SBP tag (RBFOX2, Homo sapiens, UniProt O43251-10, residues 100-194)", "technique": "RNA Bind-n-Seq", "form": "RNA", "sample": "in vitro", "concentration": "365 nM", "setting": "natural RNA segment, single round, ends assumed", "baseline": "no-protein control", "direction": "higher = stronger binding", "shared flanks, not repeated": "GGGAGUUCUACAGUCCGACGAUC … UGGAAUUCUCGGGUGCCAA", "Construct (chain)": "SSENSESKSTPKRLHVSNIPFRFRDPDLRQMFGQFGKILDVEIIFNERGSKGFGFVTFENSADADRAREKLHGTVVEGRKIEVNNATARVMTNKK"}
{"Strand": "UAACAUAUUUAUGAAGAUGAGGCCUGGUGACCCAGCAGGUUCAUUGGAUACAUAAGAAAUGAGAAUUCCUGGUUCAUGGGCCAACCUAGGACUCUGGAGUAUGCAGACUU", "RBNS enrichment (R)": 0.445}
{"Strand": "AGGGCCAGAUUUUCAGCAGCCAAGGACAUCCAUACCCAAGUGAAUGUGAUGGGGCUUCAAGACGUGAACUGAGACAAUUCACUCUGGCUGUUUGAACAGCAGCGUUUCAU", "RBNS enrichment (R)": 0.642}
{"Strand": "GAACGUGUGUUUUCUUAGUGUUAGAAGCCAGGCCCUGAGUCCCCAGCACUCACCUGAACUGUGGCUGAUUUGGUCCCAGUCCAGCUGGGGAGGUGUUUGGCUGACAAGGA", "RBNS enrichment (R)": 0.288}
{"Strand": "AGCAUCGUAAAUUAUCCAAGGAAGAUAUGGCAGGCCAAGCUGGUGCUGACCGCUGGUUUGAUUUUCUUUUUUGUUUUUGUUUUUGUCUCUGUCUCCUUGGGUGUCUGCUC", "RBNS enrichment (R)": 1.07}
{"Strand": "GAUCUUUCACCCAUUAGCAUUACUUACGUAGAUAAUUCUUUAUGCCUAGUUAUUAUACAUAUUAAUUUUUAAGGUAUACAUUUAAAUUACACAAUUGUUCAUUGUGGUUU", "RBNS enrichment (R)": 1.03}
{"data": "Set 3", "target": "Replicase polyprotein 1ab, polymerase (rep, Severe acute respiratory syndrome coronavirus 2, UniProt P0DTD1)", "read-out": "enzyme activity", "action": "inhibitor", "concentration": "20 µM"}
{"Compound": "CCOc1cc2ncc(C#N)c(Nc3ccc(OCc4ccccn4)c(Cl)c3)c2cc1NC(=O)/C=C/CN(C)C", "inhibition [%]": -4.67}
{"Compound": "CC#C[C@]1(O)CC[C@H]2[C@@H]3CCC4=CC(=O)CCC4=C3[C@@H](c3ccc(N(C)C)cc3)C[C@@]21C", "inhibition [%]": 3.93}
{"Compound": "C[C@@H](Nc1cc(F)cc(F)c1)c1cc(C(=O)N(C)C)cc2c(=O)cc(N3CCOCC3)oc12", "inhibition [%]": -0.16}
{"Compound": "Cc1nnc(-c2ccc3occ(-c4ccc([S+](C)[O-])cc4)c3c2)o1 (centres unmarked)", "inhibition [%]": -12.4}
{"Compound": "CCn1cc(C(=O)O)c(=O)c2ccc(-c3ccncc3)cc21", "inhibition [%]": 3.62}
{"Compound": "C=C(C)[C@@H]1[C@H]2OC(=O)[C@@H]1[C@]1(O)C[C@H]3O[C@]34C(=O)O[C@H]2[C@]14C", "inhibition [%]": 1.75}
{"Compound": "Cc1ncc(OC[C@@]2(c3cccc(F)c3)C[C@H]2C(=O)Nc2ccc(F)cn2)c(C)n1", "inhibition [%]": -3.33}
{"Compound": "COc1cccc(CCc2ccccc2OCC(CN(C)C)OC(=O)CCC(=O)O)c1 (centres unmarked)", "inhibition [%]": 2.66}
{"Compound": "O=c1cc(-c2ccccc2)oc2cc(O)cc(O)c12", "inhibition [%]": 1.75}
{"Compound": "CN1C2=CC(=O)/C(=N\\NC(N)=O)C=C2CC1S(=O)(=O)O (centres unmarked)", "inhibition [%]": 1.36}
{"Compound": "CN1CCc2nc(C(=O)N[C@@H]3C[C@@H](C(=O)N(C)C)CC[C@@H]3NC(=O)C(=O)Nc3ccc(Cl)cn3)sc2C1", "inhibition [%]": -0.86}
{"Compound": "N[C@@H](Cc1ccc(O)c(O)c1)C(=O)O", "inhibition [%]": -0.18}
{"Compound": "COc1ccc(S(=O)(=O)N2c3ccc(Cl)cc3[C@](O)(c3ccccc3Cl)[C@@H]2C(=O)N2CCC[C@H]2C(N)=O)cc1OC", "inhibition [%]": 3.8}
{"Compound": "CCCOc1ccc2c(c1)CC[C@@H]1[C@@H]2CC[C@]2(C)[C@@H](OC)CC[C@@H]12", "inhibition [%]": 0.93}
{"Compound": "OCCN1CCN(CC/C=C2/c3ccccc3Sc3ccc(C(F)(F)F)cc32)CC1", "inhibition [%]": -7.37}
{"Compound": "CC(C)c1ccc(NC(=O)Cn2cnc3c2c(=O)n(C)c(=O)n3C)cc1", "inhibition [%]": 2.04}
{"Compound": "CC(=O)Nc1ccc(C(=O)O)cc1", "inhibition [%]": 13}
{"Compound": "CC#CC(=O)N1CC[C@@H](n2c(=O)n(-c3ccc(Oc4ccccc4)cc3)c3c(N)ncnc32)C1", "inhibition [%]": -1.24}
{"Compound": "COCCCOc1ccnc(C[S+]([O-])c2nc3ccccc3[nH]2)c1C (centres unmarked)", "inhibition [%]": 1.12}
{"Compound": "CCOC(=O)NNc1ccc(N(CC)CC(C)O)nn1 (centres unmarked)", "inhibition [%]": -6.63}
{"Compound": "O=C(CNC(=O)c1cccc(C(F)(F)F)c1)N[C@@H]1CCN(Cc2ccc(Cl)cc2)C1", "inhibition [%]": -2.5}
{"Compound": "NS(=O)(=O)c1cc(C2(O)NC(=O)c3ccccc32)ccc1Cl (centres unmarked)", "inhibition [%]": 1.97}
{"Compound": "O=C(O)c1cc(O)c2ccc(Cl)cc2n1", "inhibition [%]": 4.7}
{"Compound": "CCc1cc(O)c(Oc2ccc(C(N)=O)cc2F)cc1F", "inhibition [%]": 5.35}
{"Compound": "O=C1C(CC[S+]([O-])c2ccccc2)C(=O)N(c2ccccc2)N1c1ccccc1 (centres unmarked)", "inhibition [%]": 23}
{"data": "Set 4", "target": "Interferon regulatory factor 5, full length, phosphomimetic (IRF5, Homo sapiens, UniProt Q13568-2, residues 1-514, K96S/S451D/S453D/S456D/S462D)", "technique": "protein-binding microarray", "form": "double-stranded DNA, one strand shown", "sample": "in vitro", "concentration": "250 nM", "setting": "60-bp whole probe", "together with": "salmon DNA 0.4 mg/ml", "baseline": "random background probes", "direction": "higher = stronger binding", "shared flanks, not repeated": "GCCTAGCAC … GTCTTGATTCGCTTGACGCTGCTG"}
{"Strand": "TTAAGACTGGACACTGGGTTAGTGCTA", "log fluorescence [z-score]": -0.7}
{"Strand": "TCAATTTTGTTCATCATACTGTGCTAG", "log fluorescence [z-score]": 1.08}
{"Strand": "GACGATATCAGTTTCGATACGTGCTAG", "log fluorescence [z-score]": 9.76}
{"Strand": "GACGGTAGCCTTCTCCTGACGTGCTAG", "log fluorescence [z-score]": -0.444}
{"Strand": "TTAAATATCAGACTGGATTAGTGCTAG", "log fluorescence [z-score]": 0.331}
{"Strand": "TTATGACTGGACTTTCGGTTAGTGCTA", "log fluorescence [z-score]": 9.27}
{"Strand": "GACGGTTTCCTTTTCTTGACGTGCTAG", "log fluorescence [z-score]": 0.984}
{"Strand": "TTAGATATCGGTTATCGATTAGTGCTA", "log fluorescence [z-score]": 7.97}
{"data": "Set 5", "target": "Histone acetyltransferase KAT6A, both winged helices, GST fusion (KAT6A, Homo sapiens, UniProt Q92794, residues 1-181)", "technique": "protein binding microarray", "form": "double-stranded DNA, one strand shown", "sample": "in vitro", "concentration": "not given", "setting": "8-mer, flanks averaged, mean of 2 arrays, mostly near background", "baseline": "not given", "direction": "higher = stronger binding", "Construct (chain)": "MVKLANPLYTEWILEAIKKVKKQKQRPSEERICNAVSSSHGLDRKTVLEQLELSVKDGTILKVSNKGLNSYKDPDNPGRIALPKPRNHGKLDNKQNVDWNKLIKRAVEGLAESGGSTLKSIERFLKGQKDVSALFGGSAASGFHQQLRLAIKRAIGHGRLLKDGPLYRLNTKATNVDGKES"}
{"Strand": "GTCATACA", "E-score": 0.0139}
{"Strand": "ATTTTAGG", "E-score": -0.196}
{"Strand": "ATACGGCC", "E-score": 0.234}
{"Strand": "ACTACGGA", "E-score": 0.186}
{"Strand": "ACGGCCCC", "E-score": 0.228}
{"Strand": "AATCCGCC", "E-score": 0.19}
{"Strand": "ATCGATTA", "E-score": -0.05}
{"Strand": "AAGTGCGA", "E-score": 0.115}
{"data": "Further values, each from its own experiment"}
{"Compound": "COc1c(N2C[C@@H]3CCCN[C@@H]3C2)c(F)cc2c(=O)c(C(=O)O)cn(C3CC3)c12", "cell line": "HEK-293T/ACE2", "conditions": "concentration not given, 16 (unit not given)", "scale": "baseline: vehicle", "quantity": "viability", "result": "101%"}
{"Compound": "O=c1[nH]c2ccccc2n1C1CCN(CCCC(c2ccc(F)cc2)c2ccc(F)cc2)CC1", "cell line": "HEK-293T", "test": "pseudovirus infection, FDA-approved drug library screen", "system": "VSV pseudotyped with SARS-CoV-2 spike", "conditions": "10 µM, 16 h", "scale": "baseline: vehicle-treated", "quantity": "GFP-positive cells", "result": "33.7%"}
{"note": "For quick reference, copied from above (set 1):"}
{"Strand": "AGTACCTC", "E-score": -0.149}
{"Strand": "ACCGATTA", "E-score": 0.0649}
{"Strand": "GCGCCTCC", "E-score": -0.23}
{"Strand": "ATTGCTTG", "E-score": 0.197}
{"Strand": "GGACCAGA", "E-score": -0.259}
{"Strand": "AAATTGCA", "E-score": 0.193}
